Experimental data from different studies.
Numbered parts are unrelated; each lists some results of a single study. Several values in a cell are separate wells, animals, samples, runs or records.
Sequence of UniProt Q15418 (whole entry, looked up): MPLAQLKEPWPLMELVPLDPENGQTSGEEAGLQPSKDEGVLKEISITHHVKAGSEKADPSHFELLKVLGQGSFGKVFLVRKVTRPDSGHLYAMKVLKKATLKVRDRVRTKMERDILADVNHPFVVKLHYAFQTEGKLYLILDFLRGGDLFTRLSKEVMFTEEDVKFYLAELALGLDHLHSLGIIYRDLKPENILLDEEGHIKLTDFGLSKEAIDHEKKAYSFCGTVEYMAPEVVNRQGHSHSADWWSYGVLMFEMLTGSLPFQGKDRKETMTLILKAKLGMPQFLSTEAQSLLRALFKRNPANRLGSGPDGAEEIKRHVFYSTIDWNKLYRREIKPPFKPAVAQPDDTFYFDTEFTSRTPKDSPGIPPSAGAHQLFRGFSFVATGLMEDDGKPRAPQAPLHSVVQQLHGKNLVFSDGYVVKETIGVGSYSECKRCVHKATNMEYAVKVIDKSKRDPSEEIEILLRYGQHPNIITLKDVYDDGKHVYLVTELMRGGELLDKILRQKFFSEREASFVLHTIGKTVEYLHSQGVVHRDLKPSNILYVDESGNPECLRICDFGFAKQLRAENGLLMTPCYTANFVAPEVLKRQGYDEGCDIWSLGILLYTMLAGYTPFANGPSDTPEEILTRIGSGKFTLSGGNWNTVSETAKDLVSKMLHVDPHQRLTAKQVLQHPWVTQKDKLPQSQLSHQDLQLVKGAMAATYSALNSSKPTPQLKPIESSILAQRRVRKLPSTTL
Sequence of UniProt P08908 (whole entry, looked up): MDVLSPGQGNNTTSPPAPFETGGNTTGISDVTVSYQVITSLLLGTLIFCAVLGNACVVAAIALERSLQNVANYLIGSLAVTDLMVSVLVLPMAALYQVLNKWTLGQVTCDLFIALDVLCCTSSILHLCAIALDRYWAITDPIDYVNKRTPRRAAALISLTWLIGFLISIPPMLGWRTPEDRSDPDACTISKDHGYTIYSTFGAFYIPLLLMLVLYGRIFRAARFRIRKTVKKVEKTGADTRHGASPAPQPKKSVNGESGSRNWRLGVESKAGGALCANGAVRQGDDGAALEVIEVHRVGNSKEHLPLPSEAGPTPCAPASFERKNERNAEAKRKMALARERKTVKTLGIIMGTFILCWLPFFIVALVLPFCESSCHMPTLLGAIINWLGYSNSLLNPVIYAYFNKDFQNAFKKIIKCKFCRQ
Sequence of UniProt P28335 (whole entry, looked up): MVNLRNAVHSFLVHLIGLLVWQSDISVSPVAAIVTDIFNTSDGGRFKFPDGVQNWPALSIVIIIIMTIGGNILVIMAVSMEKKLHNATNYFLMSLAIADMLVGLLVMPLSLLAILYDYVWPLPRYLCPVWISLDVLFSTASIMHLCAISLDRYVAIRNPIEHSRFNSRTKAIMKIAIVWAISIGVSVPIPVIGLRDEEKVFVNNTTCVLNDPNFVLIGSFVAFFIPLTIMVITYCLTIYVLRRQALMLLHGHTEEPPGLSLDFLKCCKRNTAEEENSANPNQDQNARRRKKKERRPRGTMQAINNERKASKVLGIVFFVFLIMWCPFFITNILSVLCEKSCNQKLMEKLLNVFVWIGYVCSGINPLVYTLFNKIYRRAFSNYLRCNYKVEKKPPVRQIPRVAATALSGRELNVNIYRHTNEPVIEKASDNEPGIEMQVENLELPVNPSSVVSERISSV
Sequence of UniProt Q9UQB9 (whole entry, looked up): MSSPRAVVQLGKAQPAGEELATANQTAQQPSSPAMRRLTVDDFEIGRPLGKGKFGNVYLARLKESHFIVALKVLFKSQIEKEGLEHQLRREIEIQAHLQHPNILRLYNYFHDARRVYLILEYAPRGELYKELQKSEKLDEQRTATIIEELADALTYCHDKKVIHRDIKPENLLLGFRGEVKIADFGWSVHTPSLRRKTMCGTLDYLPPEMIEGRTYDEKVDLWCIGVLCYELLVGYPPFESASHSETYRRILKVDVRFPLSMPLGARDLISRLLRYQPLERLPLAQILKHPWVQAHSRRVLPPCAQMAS
Sequence of UniProt P25098 (whole entry, looked up): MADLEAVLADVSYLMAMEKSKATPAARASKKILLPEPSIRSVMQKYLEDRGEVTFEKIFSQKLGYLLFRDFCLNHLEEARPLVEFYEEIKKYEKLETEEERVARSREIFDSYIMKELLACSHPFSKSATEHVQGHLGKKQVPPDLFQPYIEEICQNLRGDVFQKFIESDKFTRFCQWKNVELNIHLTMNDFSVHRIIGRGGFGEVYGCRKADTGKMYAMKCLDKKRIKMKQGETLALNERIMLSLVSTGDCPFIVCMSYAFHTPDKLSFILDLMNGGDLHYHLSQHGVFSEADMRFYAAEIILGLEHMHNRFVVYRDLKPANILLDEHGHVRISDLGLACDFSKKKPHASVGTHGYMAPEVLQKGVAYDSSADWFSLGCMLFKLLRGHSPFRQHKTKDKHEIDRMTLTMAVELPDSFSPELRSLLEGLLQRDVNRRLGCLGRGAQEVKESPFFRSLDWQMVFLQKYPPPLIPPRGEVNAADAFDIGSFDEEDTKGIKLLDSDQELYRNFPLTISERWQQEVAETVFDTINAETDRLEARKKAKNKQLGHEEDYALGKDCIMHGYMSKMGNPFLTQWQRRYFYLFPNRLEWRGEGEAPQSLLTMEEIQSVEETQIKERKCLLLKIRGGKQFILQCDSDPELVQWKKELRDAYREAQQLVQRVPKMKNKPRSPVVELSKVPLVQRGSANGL
Sequence of UniProt P41143 (whole entry, looked up): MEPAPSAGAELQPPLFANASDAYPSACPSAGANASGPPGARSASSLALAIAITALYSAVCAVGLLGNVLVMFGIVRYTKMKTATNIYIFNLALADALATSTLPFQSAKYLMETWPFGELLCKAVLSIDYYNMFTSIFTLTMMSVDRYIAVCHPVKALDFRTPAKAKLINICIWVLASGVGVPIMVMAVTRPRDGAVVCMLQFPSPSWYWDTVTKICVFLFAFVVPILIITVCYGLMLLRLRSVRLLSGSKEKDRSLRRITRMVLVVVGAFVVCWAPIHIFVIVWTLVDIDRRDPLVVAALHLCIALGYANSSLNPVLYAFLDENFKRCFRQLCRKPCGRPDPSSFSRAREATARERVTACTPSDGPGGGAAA
Sequence of UniProt P22455 (whole entry, looked up): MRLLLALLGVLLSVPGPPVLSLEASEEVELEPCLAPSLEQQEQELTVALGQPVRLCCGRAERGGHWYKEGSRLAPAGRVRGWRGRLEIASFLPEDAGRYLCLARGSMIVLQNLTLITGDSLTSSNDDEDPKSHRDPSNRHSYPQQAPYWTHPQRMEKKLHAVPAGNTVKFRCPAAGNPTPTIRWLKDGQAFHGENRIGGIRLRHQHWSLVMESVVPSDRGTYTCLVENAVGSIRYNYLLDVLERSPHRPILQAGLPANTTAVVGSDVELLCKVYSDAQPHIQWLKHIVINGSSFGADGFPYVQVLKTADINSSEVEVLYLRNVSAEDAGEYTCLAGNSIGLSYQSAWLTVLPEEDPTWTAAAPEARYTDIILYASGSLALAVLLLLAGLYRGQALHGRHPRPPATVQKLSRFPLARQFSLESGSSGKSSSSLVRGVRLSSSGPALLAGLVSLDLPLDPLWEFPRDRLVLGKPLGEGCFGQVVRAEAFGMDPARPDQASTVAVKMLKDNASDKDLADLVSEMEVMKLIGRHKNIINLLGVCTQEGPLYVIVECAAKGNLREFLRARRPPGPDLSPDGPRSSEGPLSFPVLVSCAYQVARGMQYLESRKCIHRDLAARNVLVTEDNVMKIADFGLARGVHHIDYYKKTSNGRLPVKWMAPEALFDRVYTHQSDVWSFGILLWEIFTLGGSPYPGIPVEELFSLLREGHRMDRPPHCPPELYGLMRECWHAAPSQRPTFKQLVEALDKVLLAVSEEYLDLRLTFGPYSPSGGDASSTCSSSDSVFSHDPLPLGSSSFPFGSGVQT
Sequence of UniProt Q9P1W9 (whole entry, looked up): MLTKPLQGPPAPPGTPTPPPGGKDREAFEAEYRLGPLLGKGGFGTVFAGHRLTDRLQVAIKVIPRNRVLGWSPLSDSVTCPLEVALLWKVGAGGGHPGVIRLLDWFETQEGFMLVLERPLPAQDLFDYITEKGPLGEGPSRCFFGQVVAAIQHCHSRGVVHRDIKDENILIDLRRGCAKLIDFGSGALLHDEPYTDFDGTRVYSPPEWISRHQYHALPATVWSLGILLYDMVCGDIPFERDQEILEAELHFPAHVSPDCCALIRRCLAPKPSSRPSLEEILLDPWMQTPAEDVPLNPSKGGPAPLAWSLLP

Study 1 — cell line: HEK-293T-ACE2-TMPRSS2; technique: cell count; concentration: 10 µM; quantity: viability
Structure (SMILES) = COc1nc2ccccc2cc1-c1cnccc1C; value = 80%
Structure (SMILES) = Cc1cc2oc(=O)cc(C)c2cc1NC(=O)COCC(F)(F)C(F)F; value = 66%
Structure (SMILES) = CC1(C)CC(=O)c2c(C(F)(F)F)nn(-c3ccc(C(N)=O)c(N[C@H]4CC[C@H](O)CC4)c3)c2C1; value = 79%
Structure (SMILES) = CCOc1ncccc1CNC(=O)C(C)(C)NC(=O)c1cccs1; value = 66%
Structure (SMILES) = CC1CCN(CCCNC(=O)c2cc3c(s2)-c2ccc(Cl)cc2SC3)CC1; value = 82%
Structure (SMILES) = CCCCN1COc2c(cc(Cl)c3cccnc23)C1; value = 137%
Structure (SMILES) = O=C(N[C@@H]1CN(Cc2c[nH]c3ccccc23)C[C@H]1CO)c1ccccc1; value = 109%
Structure (SMILES) = c1ccc(Nc2nccc(-c3ccncc3)n2)cc1; value = 69%
Structure (SMILES) = OC(Cc1ccccc1)c1ccc2c(c1)CN(Cc1ccc3ccccc3n1)CCO2 (stereo not shown); value = 91%
Structure (SMILES) = c1csc(-c2csc3nc(CN4CCOCC4)nc(Sc4nnc(C5CC5)o4)c23)c1; value = 67%
Structure (SMILES) = CCCN(CCC)c1nc(N)ncc1[N+](=O)[O-]; value = 252%
Structure (SMILES) = CN1CCC(Cc2noc(COCc3ccccc3)n2)CC1; value = 67%
Structure (SMILES) = O=C(/C=C/S/C=C/C(=O)c1ccc(F)cc1)c1ccc(F)cc1; value = 84%
Structure (SMILES) = Cc1ccc(CNC(=O)c2cccc(Nc3ccc(-c4ccc(F)cc4)nn3)c2)o1; value = 67%
Structure (SMILES) = CC1=C(O)C(=O)C=C2C1=CC=C1[C@@]2(C)CC[C@@]2(C)[C@@H]3C[C@](C)(C(=O)O)CC[C@]3(C)CC[C@]12C; value = 138%
Structure (SMILES) = Cc1noc(C)c1CN1C[C@@H](CO)[C@H](NC(=O)c2cccnc2)C1; value = 97%
Structure (SMILES) = Cc1ccccc1CN1C[C@@H]2C[C@@H](c3cc4ccccc4o3)N3CCC[C@@]23C1=O; value = 70%
Structure (SMILES) = CC(C)CCNC(=O)C1CCCN1C(=O)c1ccc(NS(C)(=O)=O)cc1 (stereo not shown); value = 85%
Structure (SMILES) = Cn1cc(CN2CCN(Cc3nccn3C)CC2)c(-c2ccc3c(c2)OCCO3)n1; value = 103%
Structure (SMILES) = COc1ccc(N2CCN(C(=O)c3nc(S(C)(=O)=O)ncc3Cl)CC2)cc1; value = 76%
Structure (SMILES) = CN(C)Cc1c(O)ccc2cc(-c3nc4ccccc4n3C)c(=O)oc12; value = 87%
Structure (SMILES) = O=S(=O)(O)c1cc(O)c2ccc3c(S(=O)(=O)O)cc(S(=O)(=O)O)c4ccc1c2c34; value = 105%
Structure (SMILES) = CC(=O)Nc1cccc(C(=O)N2CCOC(Cc3ccc(F)cc3)C2)c1 (stereo not shown); value = 114%
Structure (SMILES) = COc1ccc(C(=O)N(C)CC2CCN(CCc3ccccc3OC)CC2)cc1F; value = 113%
Structure (SMILES) = CC1Oc2ccccc2OC1C(=O)Nc1nc(-c2ccc(N(C)S(C)(=O)=O)cc2)cs1 (stereo not shown); value = 65%

Study 2 — organism: Cryptosporidium parvum; species: neonatal calves; quantity: fecal oocyst count
SMILES: CNC(=O)c1ccc(-c2cnn3ccc(C(=O)N(C)c4ccc(Cl)c(C(=O)OC)c4)cc23)cc1
assay = qPCR; conditions = dose not given, day 14 post-treatment; value = 0 oocysts/g feces and 43 oocysts/g feces
conditions = dose not given, day 6 post-treatment; value = 2120 oocysts/g feces and 0 oocysts/g feces and 82 oocysts/g feces and 36 oocysts/g feces and 473 oocysts/g feces and 354 oocysts/g feces
conditions = 10 mg/kg twice daily, day 0 post-treatment; value = 27600 oocysts/g feces and 3520 oocysts/g feces and 89800 oocysts/g feces and 77100 oocysts/g feces and 30700 oocysts/g feces and 10600 oocysts/g feces and 126000 oocysts/g feces
assay = qPCR; conditions = dose not given, day 7 post-treatment; value = 40 oocysts/g feces and 27 oocysts/g feces and 0 oocysts/g feces and 244 oocysts/g feces and 17 oocysts/g feces and 247 oocysts/g feces
assay = qPCR; conditions = dose not given, day 2 post-treatment; value = 1830 oocysts/g feces and 10200 oocysts/g feces and 61 oocysts/g feces and 97700 oocysts/g feces and 4360 oocysts/g feces and 133000 oocysts/g feces and 573 oocysts/g feces
assay = qPCR; conditions = dose not given, day 3 post-treatment; value = 4060 oocysts/g feces and 12600 oocysts/g feces and 4860 oocysts/g feces and 74 oocysts/g feces and 4870 oocysts/g feces and 1250 oocysts/g feces

Study 3 — concentration: 10 µM; quantity: inhibition
Compound: CNC(=O)c1cc(C(=O)N[C@H]2[C@@H]3COC[C@@H]32)cc2c1O[C@H](CF)[C@H]2c1ccccc1
target = Delta-type opioid receptor (OPRD1, Homo sapiens, UniProt P41143); assay = binding, radioligand binding; value = 2.46%
target = 5-hydroxytryptamine receptor 2C (HTR2C, Homo sapiens, UniProt P28335); assay = binding, radioligand binding; value = 22.2%
target = 5-hydroxytryptamine receptor 1A (HTR1A, Homo sapiens, UniProt P08908); assay = cell-free assay; value = 8.96%
target = Muscarinic acetylcholine receptor M1 (CHRM1, Homo sapiens, UniProt P11229); assay = binding, radioligand binding; value = -14.7%

Study 4 — organism: Sarcocystis neurona; read-out: parasite growth; concentration: 10 µM; time: 96 h; setting: second screen; reference: untreated; quantity: log2 fold change
Structure (SMILES) = C[C@]12CC[C@H](O)CC1=CC[C@@H]1[C@@H]2CC[C@]2(C)C(=O)CC[C@@H]12; value = 0.2
Structure (SMILES) = CCc1nc(N)nc(N)c1-c1ccc(Cl)cc1; value = -1.54
Structure (SMILES) = C=CCN1CC[C@]23c4c5ccc(O)c4O[C@H]2C(=O)CC[C@@]3(O)[C@H]1C5; value = 0.1
Structure (SMILES) = Oc1ccc2c3c1O[C@H]1[C@@H](O)CC[C@@]4(O)[C@@H](C2)N(CC2CCC2)CC[C@]314; value = 0.56
Structure (SMILES) = NC(=NCc1ccc(Cl)cc1)SCCCc1cnc[nH]1; value = 0.29
Structure (SMILES) = CC(O)(CS(=O)(=O)c1ccc(F)cc1)C(=O)Nc1ccc(C#N)c(C(F)(F)F)c1 (stereo not shown); value = 0.34
Structure (SMILES) = CC[C@@H](C(N)=O)N1CCCC1=O; value = 0.29
Structure (SMILES) = NCCc1ccccn1; value = 0.16
Structure (SMILES) = COc1cc2c(cc1OC)[C@@]13CCN4CC5=CCO[C@H]6CC(=O)N2[C@H]1[C@H]6[C@H]5C[C@H]43; value = 0.28

Study 5 — SMILES: COc1ccc2c(c1)/C(=C/c1cnc[nH]1)C(=O)N2; read-out: enzyme activity; action: inhibitor; concentration: 0.5 µM; reference: control; quantity: remaining activity
target = Receptor-type tyrosine-protein kinase FLT3 (FLT3, Homo sapiens, UniProt P36888); value = 9.29%
target = Tyrosine-protein kinase CSK (CSK, Homo sapiens, UniProt P41240); value = 96.1%
target = Protein kinase C gamma type (PRKCG, Homo sapiens, UniProt P05129); value = 95.2%
target = Ribosomal protein S6 kinase alpha-1 (RPS6KA1, Homo sapiens, UniProt Q15418); value = 69.6%
target = Fibroblast growth factor receptor 4 (FGFR4, Homo sapiens, UniProt P22455); value = 85.8%
target = Aurora kinase C (AURKC, Homo sapiens, UniProt Q9UQB9); value = 67.8%
target = Beta-adrenergic receptor kinase 1 (GRK2, Homo sapiens, UniProt P25098); value = 107%
target = Serine/threonine-protein kinase Sgk1 (SGK1, Homo sapiens, UniProt O00141); value = 71.5%
target = Serine/threonine-protein kinase pim-2 (PIM2, Homo sapiens, UniProt Q9P1W9); value = 97.2%
target = Myosin light chain kinase, smooth muscle (MYLK, Homo sapiens, UniProt Q15746); value = 80.9%
target = Ephrin type-B receptor 2 (EPHB2, Homo sapiens, UniProt P29323); value = 100%

Some of these lines once more (study 1):
Structure (SMILES) = CC1Oc2ccccc2OC1C(=O)Nc1nc(-c2ccc(N(C)S(C)(=O)=O)cc2)cs1 (stereo not shown); value = 65%
Structure (SMILES) = OC(Cc1ccccc1)c1ccc2c(c1)CN(Cc1ccc3ccccc3n1)CCO2 (stereo not shown); value = 91%
Structure (SMILES) = Cc1ccc(CNC(=O)c2cccc(Nc3ccc(-c4ccc(F)cc4)nn3)c2)o1; value = 67%
Structure (SMILES) = c1ccc(Nc2nccc(-c3ccncc3)n2)cc1; value = 69%
